# Experimental data of several laboratories.
# Lines come from different studies, so protocols differ. ± marks the error that the study gave.
# Chain of UniProt P53350 (whole entry, looked up): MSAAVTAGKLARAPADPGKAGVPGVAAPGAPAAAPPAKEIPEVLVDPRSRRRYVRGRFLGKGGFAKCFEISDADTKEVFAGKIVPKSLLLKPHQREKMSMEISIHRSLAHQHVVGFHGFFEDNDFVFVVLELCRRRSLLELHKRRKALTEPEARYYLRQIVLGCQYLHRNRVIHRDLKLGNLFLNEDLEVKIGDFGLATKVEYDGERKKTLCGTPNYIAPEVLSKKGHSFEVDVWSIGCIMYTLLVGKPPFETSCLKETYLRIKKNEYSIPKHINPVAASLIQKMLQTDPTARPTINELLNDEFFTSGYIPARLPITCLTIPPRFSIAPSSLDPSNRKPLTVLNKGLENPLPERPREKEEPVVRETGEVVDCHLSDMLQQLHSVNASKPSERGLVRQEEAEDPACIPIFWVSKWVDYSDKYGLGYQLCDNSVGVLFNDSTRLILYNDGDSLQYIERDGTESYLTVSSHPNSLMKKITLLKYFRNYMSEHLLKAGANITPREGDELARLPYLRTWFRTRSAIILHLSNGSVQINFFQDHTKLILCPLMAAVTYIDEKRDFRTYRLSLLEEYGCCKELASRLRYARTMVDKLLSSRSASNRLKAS
SMILES,tested on,assay,system,conditions,how to read,quantity,result
O=C(NN1C(=O)c2ccccc2NC1c1ccc([N+](=O)[O-])o1)c1ccc([N+](=O)[O-])cc1 (stereo not drawn),Mus musculus,"gene silencing, high-content imaging",LDR reporter GFP cells,"retest, mean of two runs",,EC50,39.8 µM
C=CC(=O)Nc1cccc(Cn2ncc3cnc(Nc4cnn(CCOC)c4)nc32)c1,PIP5K1C human,"binding, KINOMEscan",,100 nM,lower = stronger binding,percent of control,54%
N#C[C@@H]1CC(F)(F)CN1C(=O)CNC(=O)c1ccnc2c(NC(=O)[C@H](CCCCNC(=O)CCOCCOCCOCCOCCOCCOCCNC(=O)CN3CCN(CC(=O)[O-])CCN(CC(=O)[O-])CCN(CC(=O)[O-])CC3)NC(=O)CCCc3ccc(I)cc3)cccc12.[177Lu+3],U-87 MG tumour model,,"host not given, tumour","24 h, tumour-bearing",,tracer uptake,22.2 %ID/g
COc1nc(Nc2nc(O)c3ccccc3n2)nc2ccc(C)cc12,Mus musculus,"gene silencing, high-content imaging",LDR reporter GFP cells,retest run 1,,AC50,39.8 µM
C[n+]1cc(/C=N/NC(=O)C(=O)N/N=C/c2cc3ccccc3[n+](C)c2)cc2ccccc21,hp2 hairpin duplex DNA,FRET melting,,"1 µM, with: ds26 10 µM",,ΔTm,0.6 ± 0.3 °C
CC(C)C[C@H](NC(=O)[C@@H](CCCCNC(=O)[C@@H](Cc1ccccc1)NC(=O)CCCCCNC(=O)CN1CCN(CC(=O)O)CCN(CC(=O)O)CCN(CC(=O)O)CC1)NC(=O)[C@H](Cc1ccc(O)cc1)NC(=O)[C@H](CO)NC(=O)[C@H](Cc1c[nH]c2ccccc12)NC(=O)[C@H](Cc1c[nH]cn1)NC(=O)[C@@H]1CCC(=O)N1)C(=O)N[C@@H](CCCNC(=N)N)C(=O)N1CCC[C@H]1C(=O)NCC(N)=O [indium-111 labelled],,,"female athymic nude mice, muscle","intravenous, 0.037 MBq, 4 h",,tissue uptake,0.02 ± 0.02 %ID/g
CCN(CC)CC#CCNc1ccnc2cc(Cl)ccc12,Salmonella typhimurium,mini-Ames test,TA102,"1000.0 µg/well, without S9",,revertants per well,49
CCCC(=O)N1CCN(c2ccc(NC(=O)c3ccc([N+](=O)[O-])o3)cc2Cl)CC1,Mus musculus,"gene silencing, high-content imaging",LDR reporter GFP cells,"30 h, confirmation, mean of two runs",,Emax,22%
C[n+]1cc(/C=N/NC(=O)c2cncc(C(=O)N/N=C/c3cc4ccccc4[n+](C)c3)n2)cc2ccccc21,MYC parallel G4 DNA,FRET melting,,"1 µM, DNA 0.2 µM, with: duplex DNA competitor 10 µM",,ΔTm,4.6 ± 0.2 °C
CNS(=O)(=O)Nc1nccc(Cc2c(C)c3ccc(Oc4ncccc4F)cc3oc2=O)c1F,OVMANA,"cell viability, CellTiter-Glo",,7 days,,IC50,> 1 µM
O=C(N/N=C/c1cc[n+](Cc2ccccc2)c2ccccc12)c1cccc(C(=O)N/N=C/c2cc[n+](Cc3ccccc3)c3ccccc23)n1,hp2 hairpin duplex DNA,FRET melting,,1 µM,,ΔTm,2 ± 1.2 °C
CN1CCCNC(=O)c2cccc(c2)C(=O)NCCCN(C)CCCNc2cccc3c2C(=O)c2cccc(c2C3=O)NCCC1,SAS,"RNA-Seq, refers to: CNDP2 mRNA",,"1 µM, 6 h",relative to: untreated cells,log2 fold change,0.478
Cc1nn(-c2cccc(N)c2)c(=O)c2cnc(Nc3ccc(N4CCNCC4)cc3)nc12,"Serine/threonine-protein kinase PLK1 (PLK1, Homo sapiens, UniProt P53350)","enzyme activity, inhibitor",,,,IC50,> 10 µM
COC1CN([C@H]2CC[C@H]([C@@]3(C)Oc4c(Cl)cc(C(=O)NCc5c(SC)cc(C)[nH]c5=O)c(C)c4O3)CC2)C1,,"RNA-seq, refers to: MTSS2","human, whole blood","dose not given, 24 h",relative to: pretreatment baseline,log2 fold change,1.88
COC1OC(C)C(OS(=O)(=O)O)C(OC2OC(C)C(OS(=O)(=O)O)C(OC3OC(C)C(OS(=O)(=O)O)C(OC4OC(C)C(OS(=O)(=O)O)C(OC5OC(C)C(OS(=O)(=O)O)C(OS(=O)(=O)O)C5O)C4O)C3O)C2O)C1O (stereo not drawn),,,human plasma,128 µg/mL,relative to: control,prothrombin time prolongation,0.96 fold
Nc1ncc(-c2cc(-c3cnn(CC(F)(F)F)c3)ncc2F)nc1C(=O)NC1CNCC(F)C1 (stereo not drawn),MARK2,KINOMEscan,,1 µM,relative to: DMSO control,remaining binding,97%
Cc1ncsc1-c1ccc(C(C)NC(=O)C2CC(O)CN2C(=O)C(NC(=O)CCCCCCCCCCN2CCCC(Nc3ncc(Cl)c(Nc4ccccc4S(=O)(=O)C(C)C)n3)C2)C(C)(C)C)cc1 (stereo not drawn),22Rv1,"RNA-seq, refers to: NSUN3 mRNA",,concentration not given,relative to: DMSO,log2 fold change,-1.54
CCCC[C@H](NC(=O)COCCOCCNC(=O)CN1CCN(CC(=O)O)CCN(CC(=O)O)CC1)C(=O)N[C@H]1CC(=O)NCCCC[C@@H](C(N)=O)NC(=O)[C@H](Cc2c[nH]c3ccccc23)NC(=O)[C@H](CCCNC(=N)N)NC(=O)[C@@H](Cc2ccccc2)NC(=O)[C@H](Cc2c[nH]cn2)NC1=O [technetium-99m labelled],,,"C57 mouse, bone","intravenous, 0.037 MBq, 4 h",,tissue uptake,0.06 ± 0.02 %ID/g
C[n+]1ccc(/C=N/NC(=O)c2cc(C(=O)N/N=C/c3cc[n+](C)c4ccccc34)ncn2)c2ccccc21,hp2 hairpin duplex DNA,FRET melting,,1 µM,,ΔTm,0.7 ± 0.1 °C
C=C(NC(=O)c1csc(-c2nc3c(cc2O)-c2nc(cs2)C(=O)NC(C(C)O)C(=O)NC(=C(C)OC)c2nc(cs2)C(=O)NC2c4nc(cs4)C(=O)NC(COC(=O)c4c5c6c(cccc6n4O)COC(=O)C(OC4CC(C)(O)C(N(C)C)C(C)O4)C2OC5)c2nc-3cs2)n1)C(N)=O (stereo not drawn),,,"ICR mice, Streptococcus pneumoniae ATCC 49169 infected, immunocompromised, blood","intravenous, 8 mg/kg/day twice daily",,half-life,3.15 h
CC(C)(C)NCC(SS(=O)(=O)O)c1ccccc1 (stereo not drawn),,,Schistosoma mansoni-infected mice,"100 mg/kg single, day 42, perfusion day 56",,liver weight,4.6 g
C=C1CC[C@H](OCCCNC(=O)CCOCCOCCOCCOCCOCCOCCOCCOCCOCCOCCOCCOCCOCCOCCOCCOCCOCCOCCOCCOCCOCCOCCOCCOCCOCCOCCOCCOCCOCCOCCOCCOCCOCCOCCOCCOCCNC(=O)CCN2C(=O)CC(SC[C@H](NC(=O)[C@H](Cc3ccccc3)NC(=O)[C@H](CC(N)=O)NC(=O)[C@H](Cc3c[nH]cn3)NC(=O)[C@@H](NC(=O)[C@H](CC(=O)O)NC(=O)[C@H](CCC(N)=O)NC(=O)[C@H](CC(C)C)NC(=O)[C@H](CCCCN)NC(=O)[C@H](CCCCN)NC(=O)[C@H](CCCNC(=N)N)NC(=O)[C@H](CC(C)C)NC(=O)[C@H](Cc3c[nH]c4ccccc34)NC(=O)[C@H](CCC(=O)O)NC(=O)[C@@H](NC(=O)[C@H](CCCNC(=N)N)NC(=O)[C@H](CCC(=O)O)NC(=O)[C@H](CCSC)NC(=O)[C@H](CO)NC(=O)[C@H](CC(N)=O)NC(=O)[C@H](CC(C)C)NC(=O)[C@H](Cc3c[nH]cn3)NC(=O)[C@H](CCCCN)NC(=O)CNC(=O)[C@H](CC(C)C)NC(=O)[C@H](CC(N)=O)NC(=O)[C@H](Cc3c[nH]cn3)NC(=O)[C@H](CCSC)NC(=O)[C@H](CC(C)C)NC(=O)[C@H](CCC(N)=O)NC(=O)[C@@H](NC(=O)[C@H](CCC(=O)O)NC(=O)[C@H](CO)NC(=O)[C@@H](NC(=O)[C@@H](N)CO)C(C)C)[C@@H](C)CC)C(C)C)C(C)C)C(=O)O)C2=O)C/C1=C/C=C1\CCC[C@]2(C)[C@@H]([C@H](C)CCCC(C)(C)O)CC[C@@H]12 (stereo partly drawn),,,"male cynomolgus monkey, plasma","subcutaneous, 0.02 mg/kg, single dose",,Tmax,4 h
C[n+]1ccc(/C=N/NC(=O)c2cncc(C(=O)N/N=C/c3cc[n+](C)c4ccccc34)n2)c2ccccc21,MYC promoter parallel G-quadruplex DNA,UV melting,,"6 µM, 1 mM potassium, with: DNA 3 µM",,delta Tm,18.7 °C
CCCC[C@H](NC(=O)CCCCCCCNC(=O)CN1CCN(CC(=O)O)CCN(CC(=O)O)CC1)C(=O)N[C@H]1CC(=O)NCCCC[C@@H](C(N)=O)NC(=O)[C@H](Cc2c[nH]c3ccccc23)NC(=O)[C@H](CCCNC(=N)N)NC(=O)[C@@H](Cc2ccccc2)NC(=O)[C@H](Cc2c[nH]cn2)NC1=O [technetium-99m labelled],,,"C57 mouse, brain","intravenous, 0.037 MBq, 0.5 h",,tissue uptake,0.13 ± 0.14 %ID/g

# A few entries again:
SMILES,tested on,assay,system,conditions,how to read,quantity,result
CC(C)C[C@H](NC(=O)[C@@H](CCCCNC(=O)[C@@H](Cc1ccccc1)NC(=O)CCCCCNC(=O)CN1CCN(CC(=O)O)CCN(CC(=O)O)CCN(CC(=O)O)CC1)NC(=O)[C@H](Cc1ccc(O)cc1)NC(=O)[C@H](CO)NC(=O)[C@H](Cc1c[nH]c2ccccc12)NC(=O)[C@H](Cc1c[nH]cn1)NC(=O)[C@@H]1CCC(=O)N1)C(=O)N[C@@H](CCCNC(=N)N)C(=O)N1CCC[C@H]1C(=O)NCC(N)=O [indium-111 labelled],,,"female athymic nude mice, muscle","intravenous, 0.037 MBq, 4 h",,tissue uptake,0.02 ± 0.02 %ID/g
C[n+]1cc(/C=N/NC(=O)c2cncc(C(=O)N/N=C/c3cc4ccccc4[n+](C)c3)n2)cc2ccccc21,MYC parallel G4 DNA,FRET melting,,"1 µM, DNA 0.2 µM, with: duplex DNA competitor 10 µM",,ΔTm,4.6 ± 0.2 °C
